Assay results of several laboratories.
Lines come from different studies, so protocols differ. pEC50, pIC50: −log10 of the molar value. ≈ marks a conversion by molar mass, not a printed value.
UniProt Q7L7X3, sequence (whole entry, looked up): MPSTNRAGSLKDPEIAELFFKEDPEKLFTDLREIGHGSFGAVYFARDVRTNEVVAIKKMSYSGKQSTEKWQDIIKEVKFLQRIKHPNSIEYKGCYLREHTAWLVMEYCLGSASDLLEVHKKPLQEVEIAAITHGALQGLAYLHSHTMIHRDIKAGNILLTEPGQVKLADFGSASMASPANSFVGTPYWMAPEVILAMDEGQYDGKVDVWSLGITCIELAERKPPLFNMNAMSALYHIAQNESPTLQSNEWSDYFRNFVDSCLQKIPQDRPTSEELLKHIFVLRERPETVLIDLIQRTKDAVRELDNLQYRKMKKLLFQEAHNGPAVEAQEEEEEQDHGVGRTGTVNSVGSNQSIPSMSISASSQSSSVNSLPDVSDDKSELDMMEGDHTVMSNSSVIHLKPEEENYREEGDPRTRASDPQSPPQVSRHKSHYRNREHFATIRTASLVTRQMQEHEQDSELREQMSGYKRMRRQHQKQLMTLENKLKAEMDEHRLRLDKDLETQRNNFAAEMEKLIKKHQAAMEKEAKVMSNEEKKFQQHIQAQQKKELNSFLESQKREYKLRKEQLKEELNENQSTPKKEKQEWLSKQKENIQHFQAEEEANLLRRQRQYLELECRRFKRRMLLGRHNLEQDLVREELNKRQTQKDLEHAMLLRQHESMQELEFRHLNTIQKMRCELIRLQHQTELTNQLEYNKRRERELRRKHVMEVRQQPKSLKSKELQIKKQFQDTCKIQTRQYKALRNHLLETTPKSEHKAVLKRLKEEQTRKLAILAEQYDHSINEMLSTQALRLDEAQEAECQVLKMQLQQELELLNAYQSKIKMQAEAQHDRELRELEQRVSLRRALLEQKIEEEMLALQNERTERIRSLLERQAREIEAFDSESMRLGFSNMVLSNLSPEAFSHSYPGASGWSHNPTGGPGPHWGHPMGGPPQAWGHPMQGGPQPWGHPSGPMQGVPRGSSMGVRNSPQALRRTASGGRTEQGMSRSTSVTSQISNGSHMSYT
UniProt Q9NR20, sequence (whole entry, looked up): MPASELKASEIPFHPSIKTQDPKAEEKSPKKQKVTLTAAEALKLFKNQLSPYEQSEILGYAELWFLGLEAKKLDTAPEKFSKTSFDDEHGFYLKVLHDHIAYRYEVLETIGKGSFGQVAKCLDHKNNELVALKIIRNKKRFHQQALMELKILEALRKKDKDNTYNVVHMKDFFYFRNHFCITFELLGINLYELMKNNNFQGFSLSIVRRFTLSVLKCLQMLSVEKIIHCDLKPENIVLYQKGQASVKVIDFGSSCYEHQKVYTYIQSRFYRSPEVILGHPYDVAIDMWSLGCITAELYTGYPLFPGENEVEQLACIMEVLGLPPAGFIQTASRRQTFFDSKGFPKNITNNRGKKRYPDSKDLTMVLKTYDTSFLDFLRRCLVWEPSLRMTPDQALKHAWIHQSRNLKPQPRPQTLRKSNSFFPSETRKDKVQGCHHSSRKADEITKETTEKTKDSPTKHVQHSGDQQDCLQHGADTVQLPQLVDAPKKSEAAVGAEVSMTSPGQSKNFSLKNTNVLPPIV
UniProt Q9H422, sequence (whole entry, looked up): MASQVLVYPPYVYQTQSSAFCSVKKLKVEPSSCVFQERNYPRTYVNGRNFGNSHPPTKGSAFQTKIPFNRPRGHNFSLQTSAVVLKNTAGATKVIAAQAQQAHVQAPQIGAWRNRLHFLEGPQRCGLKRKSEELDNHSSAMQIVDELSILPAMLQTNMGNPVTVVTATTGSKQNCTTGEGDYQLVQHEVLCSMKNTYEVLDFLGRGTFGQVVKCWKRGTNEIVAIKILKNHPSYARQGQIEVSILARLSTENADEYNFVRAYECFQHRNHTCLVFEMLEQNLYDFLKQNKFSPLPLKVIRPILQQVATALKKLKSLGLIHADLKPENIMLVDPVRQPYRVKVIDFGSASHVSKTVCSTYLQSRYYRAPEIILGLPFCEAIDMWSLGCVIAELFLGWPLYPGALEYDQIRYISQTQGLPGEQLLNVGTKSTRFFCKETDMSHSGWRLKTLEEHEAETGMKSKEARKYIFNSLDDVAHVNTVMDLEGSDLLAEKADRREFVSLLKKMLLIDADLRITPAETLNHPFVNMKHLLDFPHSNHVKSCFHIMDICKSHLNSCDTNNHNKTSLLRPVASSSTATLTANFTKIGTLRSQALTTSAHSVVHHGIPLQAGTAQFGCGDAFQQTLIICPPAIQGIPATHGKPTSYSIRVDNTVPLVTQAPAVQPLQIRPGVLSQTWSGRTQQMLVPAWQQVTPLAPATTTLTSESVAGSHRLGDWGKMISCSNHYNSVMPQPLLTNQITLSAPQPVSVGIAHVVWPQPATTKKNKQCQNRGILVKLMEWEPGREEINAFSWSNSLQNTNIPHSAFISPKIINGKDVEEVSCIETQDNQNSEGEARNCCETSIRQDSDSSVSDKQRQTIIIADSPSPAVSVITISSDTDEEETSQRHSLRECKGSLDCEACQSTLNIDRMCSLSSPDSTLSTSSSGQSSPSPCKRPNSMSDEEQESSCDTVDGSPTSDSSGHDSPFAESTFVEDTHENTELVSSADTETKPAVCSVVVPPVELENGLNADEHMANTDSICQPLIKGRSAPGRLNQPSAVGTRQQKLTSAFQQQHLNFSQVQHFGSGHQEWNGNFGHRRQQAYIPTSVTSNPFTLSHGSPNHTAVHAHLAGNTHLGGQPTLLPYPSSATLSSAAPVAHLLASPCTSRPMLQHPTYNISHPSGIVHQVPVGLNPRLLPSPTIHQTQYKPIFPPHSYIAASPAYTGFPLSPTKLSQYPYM
UniProt Q9H0K1, sequence (whole entry, looked up): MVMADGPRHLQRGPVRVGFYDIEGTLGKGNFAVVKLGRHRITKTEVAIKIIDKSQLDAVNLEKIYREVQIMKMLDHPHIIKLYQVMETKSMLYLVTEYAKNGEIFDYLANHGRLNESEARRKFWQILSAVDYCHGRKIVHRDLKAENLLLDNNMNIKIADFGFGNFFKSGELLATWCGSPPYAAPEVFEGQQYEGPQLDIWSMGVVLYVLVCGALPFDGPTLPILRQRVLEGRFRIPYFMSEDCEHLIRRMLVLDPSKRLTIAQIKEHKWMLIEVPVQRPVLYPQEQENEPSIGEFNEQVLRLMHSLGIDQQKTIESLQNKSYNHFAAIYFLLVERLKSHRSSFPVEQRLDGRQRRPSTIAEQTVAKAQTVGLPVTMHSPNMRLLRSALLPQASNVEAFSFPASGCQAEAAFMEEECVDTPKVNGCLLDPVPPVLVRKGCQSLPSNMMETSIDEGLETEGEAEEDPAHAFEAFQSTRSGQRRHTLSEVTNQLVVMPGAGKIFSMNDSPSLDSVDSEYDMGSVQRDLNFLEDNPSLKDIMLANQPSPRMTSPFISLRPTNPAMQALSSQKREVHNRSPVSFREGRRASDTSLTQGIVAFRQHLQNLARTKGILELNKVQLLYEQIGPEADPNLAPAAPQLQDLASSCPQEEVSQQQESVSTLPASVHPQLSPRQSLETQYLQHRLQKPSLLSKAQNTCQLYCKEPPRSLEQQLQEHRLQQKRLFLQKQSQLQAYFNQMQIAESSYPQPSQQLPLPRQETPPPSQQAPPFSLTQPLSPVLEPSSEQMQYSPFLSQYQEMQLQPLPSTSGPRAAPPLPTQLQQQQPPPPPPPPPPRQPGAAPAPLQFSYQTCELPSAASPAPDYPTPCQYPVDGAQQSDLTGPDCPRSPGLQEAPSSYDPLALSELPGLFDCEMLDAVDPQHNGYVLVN

CCCC(=O)C#Cc1ccc(O)c(OC)c1  activity vs control (Pseudomonas aeruginosa; microbial growth, absorbance; 10 µM, 24 h): 98%
CC(O)C(=O)O (centres unmarked)  activity vs control (Cryptosporidium parvum; parasite growth, imaging; HCT-8; 1 mM, 24 h, intracellular): 105%
CN(CC(=O)Nc1ccc(N(C)c2ccc(F)c(F)c2)cc1)c1ccccc1N1CCCC1=O  pEC50 (Plasmodium falciparum; parasite growth; 3D7; 72 h, blood stage): 7.29
Cc1ncc(CO)c(C=O)c1O  activity vs control (Cryptosporidium parvum; parasite growth, imaging; HCT-8; 1 mM, 24 h, intracellular): 28.5%
C#CCOC(=O)ON=C1C=CC(=C(C#N)c2ccccc2)C=C1  MFC (Candida tropicalis; microbial killing, broth dilution; ATCC13803; 48 h): 16 µg/mL (≈ 52.6 µM)
COc1cccc2[nH]ccc12  EC90 (Cryptosporidium parvum; parasite growth; HCT-8; 24 h, intracellular): 1320 µM
CO[C@H]1C[C@@H]2CC[C@@H](C)[C@@](O)(O2)C(=O)C(=O)N2CCCC[C@H]2C(=O)O[C@H]([C@H](C)C[C@@H]2CC[C@@H](O)[C@H](OC)C2)CC(=O)[C@H](C)/C=C(\C)[C@@H](O)[C@@H](OC)C(=O)[C@H](C)C[C@H](C)/C=C/C=C/C=C/1C  MIC (Staphylococcus aureus; microbial growth; NCTC8325): > 30 µM
Cc1ccc(N(C)c2ccc(NC(=O)CN(C)c3ccccc3N3CCCC3=O)cc2)cc1Cl  pEC50 (Plasmodium falciparum; parasite growth; 3D7; 72 h, blood stage): 7.51
Cc1cn(-c2cc(NC(=O)c3ccc(C)c(Nc4nccc(-c5cccnc5)n4)c3)cc(C(F)(F)F)c2)cn1  MIC (Staphylococcus aureus; microbial growth; NCTC8325): > 30 µM
CC(=O)NC[C@H]1CN(c2ccc(N3CCOCC3)c(F)c2)C(=O)O1  MIC50 (Staphylococcus epidermidis; microbial growth; clinical isolate): 1 µg/mL (≈ 2.96 µM)
COC(=O)Nc1nc2cc(C(=O)c3ccc(F)cc3)ccc2[nH]1  pIC50 (Cryptococcus neoformans; microbial growth, broth dilution; 72 h, clinical isolate): 5.90
Cc1ccc(N(C)c2ccc(NC(=O)CN(C)c3ccccc3N3CCCC3=O)cc2F)cc1  pEC50 (Plasmodium falciparum; parasite growth; 3D7; 72 h, blood stage): 6.21
COc1cc(-c2cncc3c2CN(C)Cc2cc(N4CCNCC4)ccc2-3)cc(OC)c1OC  remaining activity (Homeodomain-interacting protein kinase 3 (HIPK3, Homo sapiens, UniProt Q9H422); enzyme activity, inhibitor; 1 µM): 103%
COc1cc(NC(=O)Nc2ccc(Cl)c(C(F)(F)F)c2)cc(OC)c1OC  MIC (Staphylococcus aureus; microbial growth; NCTC8325; 24 h): 30 µM (≈ 12.1 µg/mL)
Cc1cc([C@@H](C)Nc2ccccc2C(=O)O)c2nc(N3CCC(F)(F)CC3)c(C#N)c(=O)n2c1  remaining binding (Serine/threonine-protein kinase pim-3 (PIM3, Homo sapiens, UniProt Q86V86); binding, competition with immobilised ligand; 1 µM): 100%
CC(=O)OC[C@@]1(C)[C@H]2CC[C@@H]3CN(Cc4ccc(F)cc4)[C@@H](C4=CCOC4=O)C[C@H]3[C@]2(C)CC[C@H]1OC(C)=O  inhibition (unidentified human coronavirus; cytopathic effect; MRC5; 25 µM, 72 h): 84.7%
Cc1ncc(CO)c(CO)c1O  activity vs control (Cryptosporidium parvum; parasite growth, imaging; HCT-8; 1 mM, 24 h, intracellular): 78.7%
CCCCC(=O)Nc1ccc(-c2ccc3ncn(CCC)c(=O)c3c2)cn1  remaining binding (Serine/threonine-protein kinase TAO1 (TAOK1, Homo sapiens, UniProt Q7L7X3); binding, competition with immobilised ligand; 0.5 µM): 100%
C#CCC(Cc1cnc2nc(N)nc(N)c2n1)c1ccc(C(=O)N[C@@H](CCC(=O)O)C(=O)O)cc1 (some centres unmarked)  pIC50 (Trypanosoma cruzi; parasite growth, absorbance; Vero, TULAHUEN; 96 h, intracellular, amastigote): 6.92
CCC1=C[C@@H]2CN(C1)Cc1c([nH]c3ccccc13)[C@@](C(=O)OC)(c1cc3c(cc1OC)N(C)[C@H]1[C@@](O)(C(=O)OC)[C@H](OC(C)=O)[C@]4(CC)C=CCN5CC[C@]31[C@@H]54)C2  MIC (Staphylococcus aureus; microbial growth; NCTC8325): > 30 µM
COc1ccc(C=NNC(=O)CSc2nc3ccc(Cl)cc3c(=O)n2-c2ccccc2)cc1OS(C)(=O)=O  inhibition zone (Pseudomonas aeruginosa; microbial growth, well diffusion; 20 µg/mL): 3 mm
CCc1ccc(NC(=O)Nc2ccc(Cl)c(C(F)(F)F)c2)cc1  MIC (Staphylococcus aureus; microbial growth; NCTC8325; 24 h): 0.7 µM (≈ 0.24 µg/mL)
C=CC(=O)N1CCC(COCC(=O)N2CCN(c3nc(-c4cnc(N)nc4C(F)F)nc(N4CCOC[C@@H]4C)n3)CC2)CC1  remaining binding (Serine/threonine-protein kinase SIK2 (SIK2, Homo sapiens, UniProt Q9H0K1); binding, competition with immobilised ligand; 1 µM): 91%
COc1cc(C#CC(=O)c2cccc(Cl)c2)ccc1O  activity vs control (Pseudomonas aeruginosa; microbial growth, absorbance; 100 µM, 24 h): 95%
CC[C@H]1OC(=O)[C@H](C)[C@@H](O[C@H]2C[C@@](C)(OC)[C@@H](O)[C@H](C)O2)[C@H](C)[C@@H](O[C@@H]2O[C@H](C)C[C@H](N(C)C)[C@H]2O)[C@](C)(O)C[C@@H](C)C(=O)[C@H](C)[C@@H](O)[C@]1(C)O  MIC (Staphylococcus aureus; microbial growth; NCTC8325): 0.26 µM (≈ 0.191 µg/mL)
N#Cc1cccc2cc[nH]c12  EC90 (Cryptosporidium parvum; parasite growth; HCT-8; 24 h, intracellular): 505 µM
Cc1ccc(Oc2ccc(NC(=O)CNc3ccccc3N3CCOC3=O)cc2)cc1  pEC50 (Plasmodium falciparum; parasite growth; 3D7; 72 h, blood stage): 6.02
O=C(O)Cc1ccc(O)cc1  activity vs control (Cryptosporidium parvum; parasite growth, imaging; HCT-8; 1 mM, 24 h, intracellular): 106%
Cc1ccc(C(C)(C)c2ccc(NC(=O)CN(C)c3ccccc3N3CCCC3=O)cc2)cc1  pEC50 (Plasmodium falciparum; parasite growth; 3D7; 72 h, blood stage): 6.67
CC(C)(C)[C@@H]1NC(=O)O[C@@H]2CCC[C@H]2OC/C=C/C(F)(F)c2nc3ccccc3nc2O[C@@H]2C[C@@H](C(=O)N[C@]3(C(=O)NS(=O)(=O)C4(C)CC4)C[C@H]3C(F)F)N(C2)C1=O  pIC50 (Trypanosoma cruzi; parasite growth, absorbance; Vero, TULAHUEN; 96 h, intracellular, amastigote): 3.96
Cc1cccc(N(O)N=Nc2ccc(S(=O)(=O)Nc3onc(C)c3C)cc2)c1  inhibition (ABTS scavenging; 300 µg/mL): 76.8%
CNc1ncc2c(/C=C/C(=O)N3CCC(OC)CC3)nn(Cc3cccc(C(F)(F)F)c3)c2n1  remaining activity (Dual specificity tyrosine-phosphorylation-regulated kinase 4 (DYRK4, Homo sapiens, UniProt Q9NR20); enzyme activity, inhibitor, radiometric; 1 µM): 112%
COc1cc(C#CC(=O)c2ccccc2C)ccc1O  activity vs control (Pseudomonas aeruginosa; microbial growth, absorbance; 10 µM, 24 h): 97%
OC(c1cc(C(F)(F)F)nc2c(C(F)(F)F)cccc12)C1CCCCN1 (centres unmarked)  pEC50 (Plasmodium falciparum; parasite growth; 3D7; 72 h, blood stage): 7.62
NCCC(=O)O  activity vs control (Cryptosporidium parvum; parasite growth, imaging; HCT-8; 1 mM, 24 h, intracellular): 112%
Cc1ccc(Oc2ccc(NC(=O)CN(C)c3ccccc3N3CCCC3=O)cc2)cc1  pEC50 (Plasmodium falciparum; parasite growth; 3D7; 72 h, blood stage): 6.30
COc1cc(C#CC(=O)c2cccc(C)c2)ccc1O  activity vs control (Pseudomonas aeruginosa; microbial growth, absorbance; 100 µM, 24 h): 130%
CN(Cc1ccc(C2(C(F)(F)F)CC2)cc1)Cc1cccc2ccccc12  inhibition zone (Trichophyton rubrum; microbial growth, disc diffusion; ATCC28188; 0.001 µg/mL, 6 days): 16.5 mm
COc1ccc(C(=O)C#Cc2ccc(F)c(F)c2)cc1  activity vs control (Pseudomonas aeruginosa; microbial growth, absorbance; 100 µM, 24 h): 81%
CN(Cc1ccc(C(C)(C)C)cc1)Cc1cccc2ccccc12  inhibition zone (Trichophyton rubrum; microbial growth, disc diffusion; ATCC28188; 0.016 µg/mL, 6 days): ≥ 55 mm
Cc1ccc(C(C)c2ccc(NC(=O)CN(C)c3ccccc3N3CCCC3=O)cc2)cc1 (centres unmarked)  pEC50 (Plasmodium falciparum; parasite growth; 3D7; 72 h, blood stage): 6.34
Cc1noc(NS(=O)(=O)c2ccc(N=NN(C)O)cc2)c1C  inhibition (ABTS scavenging; 300 µg/mL): 98.9%
COc1cc(C#CC(=O)c2ccc(Cl)cc2)ccc1O  activity vs control (Pseudomonas aeruginosa; microbial growth, absorbance; 100 µM, 24 h): 97%
CCOc1ccn(-c2ccc(F)cc2)c(=O)c1C(=O)Nc1ccc(Oc2ccnc(N)c2Cl)c(F)c1  MIC (Staphylococcus aureus; microbial growth; NCTC8325): > 30 µM
CC1(C)S[C@@H]2[C@H](NC(=O)[C@H](N)c3ccccc3)C(=O)N2[C@H]1C(=O)O  MIC90 (Streptococcus agalactiae; microbial growth; clinical isolate): 16 µg/mL (≈ 45.8 µM)
COc1cc2nccc(Oc3ccc(NC(=O)C4(C(=O)Nc5ccc(F)cc5)CC4)cc3)c2cc1OC  MIC (Staphylococcus aureus; microbial growth; NCTC8325): > 30 µM
COc1cc(C#CC(O)c2ccccc2OC)ccc1O (centres unmarked)  activity vs control (Pseudomonas aeruginosa; microbial growth, absorbance; 100 µM, 24 h): 79%
NC(=O)NCCC[C@H](N)C(=O)O  activity vs control (Cryptosporidium parvum; parasite growth, imaging; HCT-8; 1 mM, 24 h, intracellular): 102%
COc1cc(C#C[C@H](O)CC(C)C)ccc1O  activity vs control (Pseudomonas aeruginosa; microbial growth, absorbance; 10 µM, 24 h): 91%
COC(=O)Nc1nc2ccc(C(=O)c3ccccc3)cc2[nH]1  IC90 (Cryptococcus neoformans; microbial growth, broth dilution; 72 h): 2.5 µM

A few entries again:
COc1cc(C#CC(=O)c2cccc(Cl)c2)ccc1O  activity vs control (Pseudomonas aeruginosa; microbial growth, absorbance; 100 µM, 24 h): 95%
CC[C@H]1OC(=O)[C@H](C)[C@@H](O[C@H]2C[C@@](C)(OC)[C@@H](O)[C@H](C)O2)[C@H](C)[C@@H](O[C@@H]2O[C@H](C)C[C@H](N(C)C)[C@H]2O)[C@](C)(O)C[C@@H](C)C(=O)[C@H](C)[C@@H](O)[C@]1(C)O  MIC (Staphylococcus aureus; microbial growth; NCTC8325): 0.26 µM (≈ 0.191 µg/mL)
N#Cc1cccc2cc[nH]c12  EC90 (Cryptosporidium parvum; parasite growth; HCT-8; 24 h, intracellular): 505 µM
Cc1ccc(Oc2ccc(NC(=O)CNc3ccccc3N3CCOC3=O)cc2)cc1  pEC50 (Plasmodium falciparum; parasite growth; 3D7; 72 h, blood stage): 6.02
O=C(O)Cc1ccc(O)cc1  activity vs control (Cryptosporidium parvum; parasite growth, imaging; HCT-8; 1 mM, 24 h, intracellular): 106%
Cc1ccc(C(C)(C)c2ccc(NC(=O)CN(C)c3ccccc3N3CCCC3=O)cc2)cc1  pEC50 (Plasmodium falciparum; parasite growth; 3D7; 72 h, blood stage): 6.67
CC(C)(C)[C@@H]1NC(=O)O[C@@H]2CCC[C@H]2OC/C=C/C(F)(F)c2nc3ccccc3nc2O[C@@H]2C[C@@H](C(=O)N[C@]3(C(=O)NS(=O)(=O)C4(C)CC4)C[C@H]3C(F)F)N(C2)C1=O  pIC50 (Trypanosoma cruzi; parasite growth, absorbance; Vero, TULAHUEN; 96 h, intracellular, amastigote): 3.96
